Measured values collected from several papers.
Parts stem from different laboratories: compare values within a part only. “And” joins repeats or separate records; there may be more than shown. Positions count from the first letter of the parent shown.

Study 1 — target: CCND2, cyclin fold, Cln2 fusion (human); technique: yeast growth competition, sequencing; matrix: yeast; notes: strong parent motif; reference: not given; reading: higher = stronger binding; quantity: normalised enrichment score
Starting sequence: viral docking peptide; YKVKRRLVFGADD; partner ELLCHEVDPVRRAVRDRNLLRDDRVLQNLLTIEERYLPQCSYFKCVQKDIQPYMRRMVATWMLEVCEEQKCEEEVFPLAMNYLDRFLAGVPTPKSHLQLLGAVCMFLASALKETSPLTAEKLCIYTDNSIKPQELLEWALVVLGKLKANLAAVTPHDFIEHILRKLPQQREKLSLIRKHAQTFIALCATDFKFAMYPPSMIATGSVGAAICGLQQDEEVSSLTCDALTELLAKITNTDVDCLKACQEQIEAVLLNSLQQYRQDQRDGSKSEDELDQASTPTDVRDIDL
Substitution = YKVKRRLCFGADD [V8C]; value = 1.19
Substitution = YKVKKRLVFGADD [R5K]; value = 0.613
Substitution = YKVERRLVFGADD [K4E]; value = 0.524
Substitution = YKVKRRLFFGADD [V8F]; value = 1.04
Substitution = YKVKRRLVFVADD [G10V]; value = 1.13
Substitution = YKVKRILVFGADD [R6I]; value = 0.274
Substitution = YKVKRRTVFGADD [L7T]; value = -0.0443
Substitution = YKTKRRLVFGADD [V3T]; value = 0.972

Study 2 — observed: peptide-MHC binding; molecule type: peptide; concentration: concentration not given; quantity: binding
Target: HLA class I histocompatibility antigen, A alpha chain, allele A*80:01 (Homo sapiens, UniProt P04439)
Sequence = EISGSSARY; value = inactive
Sequence = HLSGWELAK; value = inactive
Sequence = FGALFMWLL; value = inactive
Sequence = FPSNMMVVT; value = inactive
Sequence = MAVTAAPYI; value = inactive
Sequence = FHKRDMRLL; value = inactive
Sequence = MPMSMPIPM; value = inactive
Sequence = YLQAKSQVL; value = inactive

Further values, each from its own experiment
Structure (SMILES) = Cc1c[nH]c(-c2c(-c3ccccc3)ncn2Cc2ccccc2CN(C)C)n1; tested on = HEK-293T-ACE2-TMPRSS2; technique = cell count; concentration = concentration not given; quantity = viability; value = 85%
Structure (SMILES) = CCCCCCCCCCCCCCCCOP(=O)([O-])OCC[N+](C)(C)C; tested on = Leishmania donovani; strain = DD8 resistant line; matrix = promastigotes; concentration = 16.66 µM; quantity = inhibition; value = 1% and 2%

A few entries again (study 2):
Sequence = FPSNMMVVT; value = inactive
Sequence = MAVTAAPYI; value = inactive
